# Measurements of several laboratories.
# Lines come from different studies, so protocols differ. ± marks the error that the study gave.
SMILES,test,test system,conditions,endpoint,result
O=C(CCC(C(=O)[O-])N1CCN(C(CCC(=O)NCC(O)CO)C(=O)[O-])Cc2cccc(n2)CN(C(CCC(=O)NCC(O)CO)C(=O)[O-])CC1)NCC(O)CO.[153Gd+3] (centres unmarked),refers to: total radioactivity,"Beagle dog, plasma","intravenous, 0.2 mmol Gd/kg",Tmax,0.0833 h
CCCC[C@H](NC(C)=O)C(=O)N[C@H]1CC(=O)NCCCC[C@@H](C(=O)N[C@@H](C(=O)N2CCC[C@@H]2C(N)=O)C(C)C)NC(=O)[C@H](Cc2c[nH]c3ccccc23)NC(=O)[C@H](CCCN=C(N)N)NC(=O)[C@@H](Cc2ccc3ccccc3c2)NC(=O)[C@@H]2CCCN2C1=O,,"dog, cachectic, plasma","subcutaneous, 0.75 mg/kg",Tmax,1 h
COC(=O)c1ccc2c(c1)NC(=O)/C2=C(\Nc1ccc2c(c1)CCN2C(=O)CN1CCOCC1)c1ccccc1,,"beagle dog, plasma","oral, 50 mg/kg",Tmax,2 h
CC(C)C[C@@H](NC(=O)[C@H](NC(=O)[C@H]1CCCN1)[C@H](C)O)C(=O)N[C@H](Cc1c[nH]cn1)C(=O)N[C@@H](C(=O)N[C@H](Cc1c[nH]cn1)C(=O)N[C@H](CC(N)=O)C(=O)N[C@H](CCCNC(=N)N)C(=O)N[C@H](CCCNC(=N)N)C(=O)N[C@H](CCCNC(=N)N)C(=O)N[C@H](CCCNC(=N)N)C(=O)N[C@H](CCCNC(=N)N)C(N)=O)[C@H](C)O,,"Beagle dog, CSF","oral, 50 mg/kg",tmax,8.7 ± 7.8 h
CCCC[C@H](NC(C)=O)C(=O)N[C@H]1CC(=O)NCCCC[C@@H](C(=O)N[C@@H](C(=O)N2CCC[C@@H]2C(N)=O)C(C)C)NC(=O)[C@H](Cc2c[nH]c3ccccc23)NC(=O)[C@H](CCCN=C(N)N)NC(=O)[C@@H](Cc2ccc3ccccc3c2)NC(=O)[C@@H]2CCCN2C1=O,,"Beagle dog, both sexes, plasma","subcutaneous, once daily, 0.75 mg/kg, day 5",Tmax,1.2 ± 0.2 h
CC1(C)CCC(CN2CCN(c3ccc(C(=O)NS(=O)(=O)c4ccc(NCC5COCCO5)c([N+](=O)[O-])c4)c(N4CCCOc5nc6[nH]ccc6cc54)c3)CC2)=C(c2ccc(Cl)cc2)C1 (centres unmarked),,"male Beagle dogs, plasma","oral, 25 mg/kg",Tmax,10 h
Cc1[nH]c(/C=C2\C(=O)Nc3ccc(F)cc32)c(C)c1NC(=O)CCN1CCN(C)CC1,,"Beagle dog, both sexes, plasma","oral, 3 mg/kg",Tmax,9.08 ± 11.6 h
Cc1ccc(OCC(=O)N(Cc2cccs2)c2ccn[nH]2)cc1,,"beagle dog, male, plasma","oral gavage, 10 mg/kg",Tmax,1.5 h

# Excerpt of the above:
SMILES,test,test system,conditions,endpoint,result
O=C(CCC(C(=O)[O-])N1CCN(C(CCC(=O)NCC(O)CO)C(=O)[O-])Cc2cccc(n2)CN(C(CCC(=O)NCC(O)CO)C(=O)[O-])CC1)NCC(O)CO.[153Gd+3] (centres unmarked),refers to: total radioactivity,"Beagle dog, plasma","intravenous, 0.2 mmol Gd/kg",Tmax,0.0833 h
